Published values of several laboratories.
Every numbered part comes from another study and shows a few of its results, in no order. Positions count from the first letter of the parent shown.
Chain of UniProt Q8IYT8 (whole entry, looked up): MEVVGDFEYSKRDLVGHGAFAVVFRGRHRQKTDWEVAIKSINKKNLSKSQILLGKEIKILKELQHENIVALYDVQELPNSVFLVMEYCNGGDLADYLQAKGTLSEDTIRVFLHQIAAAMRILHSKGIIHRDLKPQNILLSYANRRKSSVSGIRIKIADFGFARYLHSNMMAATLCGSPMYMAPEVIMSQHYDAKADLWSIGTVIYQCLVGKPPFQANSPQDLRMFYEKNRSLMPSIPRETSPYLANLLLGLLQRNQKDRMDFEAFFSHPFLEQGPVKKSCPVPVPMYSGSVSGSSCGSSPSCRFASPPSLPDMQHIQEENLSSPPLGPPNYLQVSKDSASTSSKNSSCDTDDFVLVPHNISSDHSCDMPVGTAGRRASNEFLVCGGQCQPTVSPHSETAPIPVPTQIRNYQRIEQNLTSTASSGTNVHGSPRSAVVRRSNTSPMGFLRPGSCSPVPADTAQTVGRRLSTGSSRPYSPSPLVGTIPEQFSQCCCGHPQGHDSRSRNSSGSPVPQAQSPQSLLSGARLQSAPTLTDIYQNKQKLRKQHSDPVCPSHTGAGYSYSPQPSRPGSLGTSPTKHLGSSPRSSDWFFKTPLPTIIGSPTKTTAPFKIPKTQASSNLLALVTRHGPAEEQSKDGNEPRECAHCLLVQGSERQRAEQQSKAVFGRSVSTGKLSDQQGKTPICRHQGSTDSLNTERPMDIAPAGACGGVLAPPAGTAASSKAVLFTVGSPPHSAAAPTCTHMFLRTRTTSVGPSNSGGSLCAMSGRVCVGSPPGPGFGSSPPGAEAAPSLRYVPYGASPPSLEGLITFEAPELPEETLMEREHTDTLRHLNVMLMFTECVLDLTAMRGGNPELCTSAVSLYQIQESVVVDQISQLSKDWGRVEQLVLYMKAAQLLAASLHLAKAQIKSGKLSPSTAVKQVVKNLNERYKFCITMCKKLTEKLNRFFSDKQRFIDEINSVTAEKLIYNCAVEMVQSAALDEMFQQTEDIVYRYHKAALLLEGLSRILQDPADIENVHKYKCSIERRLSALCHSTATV
Chain of UniProt P10721 (whole entry, unmodified, looked up): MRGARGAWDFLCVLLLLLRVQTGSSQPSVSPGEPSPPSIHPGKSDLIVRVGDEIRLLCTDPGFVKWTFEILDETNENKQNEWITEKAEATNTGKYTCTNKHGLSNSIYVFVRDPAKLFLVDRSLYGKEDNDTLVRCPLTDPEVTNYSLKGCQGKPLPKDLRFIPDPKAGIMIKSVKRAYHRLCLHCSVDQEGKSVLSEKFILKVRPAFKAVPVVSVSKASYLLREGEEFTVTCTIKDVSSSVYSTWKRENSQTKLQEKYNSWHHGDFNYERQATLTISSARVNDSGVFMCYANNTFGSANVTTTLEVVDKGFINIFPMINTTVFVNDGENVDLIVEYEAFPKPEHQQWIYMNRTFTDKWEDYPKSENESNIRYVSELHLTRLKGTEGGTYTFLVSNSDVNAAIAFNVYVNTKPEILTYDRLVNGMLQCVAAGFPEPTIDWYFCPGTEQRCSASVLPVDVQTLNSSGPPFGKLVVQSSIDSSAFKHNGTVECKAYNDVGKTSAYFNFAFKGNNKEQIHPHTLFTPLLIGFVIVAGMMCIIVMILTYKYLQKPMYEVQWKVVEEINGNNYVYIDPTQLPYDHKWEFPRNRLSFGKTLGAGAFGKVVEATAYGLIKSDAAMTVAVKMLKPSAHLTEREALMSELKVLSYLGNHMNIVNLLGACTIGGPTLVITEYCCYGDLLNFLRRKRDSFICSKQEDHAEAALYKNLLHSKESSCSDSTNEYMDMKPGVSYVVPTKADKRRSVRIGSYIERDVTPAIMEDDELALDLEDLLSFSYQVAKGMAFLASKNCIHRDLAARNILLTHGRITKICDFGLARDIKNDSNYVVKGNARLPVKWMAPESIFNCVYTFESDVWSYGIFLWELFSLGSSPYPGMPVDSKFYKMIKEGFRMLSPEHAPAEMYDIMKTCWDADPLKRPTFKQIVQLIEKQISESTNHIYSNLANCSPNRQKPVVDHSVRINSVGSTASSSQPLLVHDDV
Chain of UniProt Q13546 (whole entry, looked up): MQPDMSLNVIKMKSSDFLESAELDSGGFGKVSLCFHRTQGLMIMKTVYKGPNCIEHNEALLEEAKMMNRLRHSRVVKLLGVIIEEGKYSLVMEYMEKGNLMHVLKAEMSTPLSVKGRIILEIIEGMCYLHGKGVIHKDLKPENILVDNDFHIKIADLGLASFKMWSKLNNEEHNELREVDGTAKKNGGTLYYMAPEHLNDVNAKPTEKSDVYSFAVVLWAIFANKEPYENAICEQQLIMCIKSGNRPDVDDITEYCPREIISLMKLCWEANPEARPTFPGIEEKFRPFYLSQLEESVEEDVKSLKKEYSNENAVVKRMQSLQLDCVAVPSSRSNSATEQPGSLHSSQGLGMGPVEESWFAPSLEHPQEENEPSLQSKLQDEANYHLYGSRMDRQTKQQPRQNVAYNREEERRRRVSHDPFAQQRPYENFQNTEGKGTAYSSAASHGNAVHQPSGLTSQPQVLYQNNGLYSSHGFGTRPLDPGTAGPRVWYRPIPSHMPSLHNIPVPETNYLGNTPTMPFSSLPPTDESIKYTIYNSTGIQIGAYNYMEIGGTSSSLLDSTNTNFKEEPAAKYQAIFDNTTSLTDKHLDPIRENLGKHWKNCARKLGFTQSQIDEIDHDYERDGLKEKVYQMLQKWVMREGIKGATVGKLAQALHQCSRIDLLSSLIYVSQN
Chain of UniProt Q9UM73 (whole entry, unmodified, looked up): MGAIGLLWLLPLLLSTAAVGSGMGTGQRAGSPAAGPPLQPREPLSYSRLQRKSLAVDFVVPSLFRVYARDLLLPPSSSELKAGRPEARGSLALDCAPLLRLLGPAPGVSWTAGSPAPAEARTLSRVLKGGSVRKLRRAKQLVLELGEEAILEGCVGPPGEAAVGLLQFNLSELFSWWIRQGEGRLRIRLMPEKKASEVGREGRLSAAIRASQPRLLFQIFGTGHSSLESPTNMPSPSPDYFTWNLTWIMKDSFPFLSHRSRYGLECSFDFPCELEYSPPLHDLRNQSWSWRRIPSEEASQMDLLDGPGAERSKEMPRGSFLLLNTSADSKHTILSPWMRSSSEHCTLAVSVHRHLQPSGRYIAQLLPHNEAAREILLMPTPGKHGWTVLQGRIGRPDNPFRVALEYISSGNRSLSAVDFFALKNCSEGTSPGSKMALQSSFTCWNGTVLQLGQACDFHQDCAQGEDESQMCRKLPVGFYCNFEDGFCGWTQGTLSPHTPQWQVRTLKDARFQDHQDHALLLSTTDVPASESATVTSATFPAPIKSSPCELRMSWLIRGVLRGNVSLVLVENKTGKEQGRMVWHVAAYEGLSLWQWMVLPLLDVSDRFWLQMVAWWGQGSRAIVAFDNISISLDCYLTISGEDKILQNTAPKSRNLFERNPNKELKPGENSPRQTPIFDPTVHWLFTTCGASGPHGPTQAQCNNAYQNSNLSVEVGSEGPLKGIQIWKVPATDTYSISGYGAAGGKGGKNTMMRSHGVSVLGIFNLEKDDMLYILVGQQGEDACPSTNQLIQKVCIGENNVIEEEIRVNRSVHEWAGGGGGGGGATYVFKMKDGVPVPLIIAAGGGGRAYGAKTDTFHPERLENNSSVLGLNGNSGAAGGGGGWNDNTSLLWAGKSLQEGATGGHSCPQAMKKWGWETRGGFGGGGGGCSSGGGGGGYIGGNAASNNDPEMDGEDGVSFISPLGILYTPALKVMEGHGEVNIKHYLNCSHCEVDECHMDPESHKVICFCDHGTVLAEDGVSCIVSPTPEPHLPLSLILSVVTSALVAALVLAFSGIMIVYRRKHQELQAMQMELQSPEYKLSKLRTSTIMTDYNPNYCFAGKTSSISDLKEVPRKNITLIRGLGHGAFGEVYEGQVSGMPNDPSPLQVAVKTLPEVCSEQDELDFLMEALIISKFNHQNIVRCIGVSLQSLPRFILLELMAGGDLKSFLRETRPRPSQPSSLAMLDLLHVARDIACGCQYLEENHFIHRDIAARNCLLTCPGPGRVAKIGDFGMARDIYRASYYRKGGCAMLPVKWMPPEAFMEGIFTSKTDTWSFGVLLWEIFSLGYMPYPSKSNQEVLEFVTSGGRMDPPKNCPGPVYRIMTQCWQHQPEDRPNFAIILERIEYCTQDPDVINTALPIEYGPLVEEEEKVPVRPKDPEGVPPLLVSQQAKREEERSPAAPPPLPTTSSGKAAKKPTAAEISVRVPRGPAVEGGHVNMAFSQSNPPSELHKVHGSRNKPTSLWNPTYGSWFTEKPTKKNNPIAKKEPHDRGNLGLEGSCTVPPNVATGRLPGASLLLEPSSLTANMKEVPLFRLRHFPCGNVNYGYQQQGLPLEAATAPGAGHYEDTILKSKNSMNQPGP
Chain of UniProt Q9NY57 (whole entry, looked up): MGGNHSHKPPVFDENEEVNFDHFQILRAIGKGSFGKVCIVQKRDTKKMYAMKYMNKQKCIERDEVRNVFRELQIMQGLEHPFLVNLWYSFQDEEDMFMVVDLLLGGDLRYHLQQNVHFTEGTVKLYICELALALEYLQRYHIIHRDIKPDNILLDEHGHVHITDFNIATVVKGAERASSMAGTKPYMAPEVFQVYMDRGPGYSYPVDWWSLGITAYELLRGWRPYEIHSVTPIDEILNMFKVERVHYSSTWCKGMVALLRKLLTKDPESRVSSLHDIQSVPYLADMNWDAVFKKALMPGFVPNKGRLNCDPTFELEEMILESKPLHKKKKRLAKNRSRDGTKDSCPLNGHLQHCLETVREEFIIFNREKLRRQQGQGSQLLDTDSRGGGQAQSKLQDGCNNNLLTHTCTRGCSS

Series 1 — observed: cell-free assay; method: competition with immobilised ligand; tested at: 1 µM; measurement: remaining binding
SMILES: N#CC1(c2ccccn2)CCN(Cc2cc(C(=O)O)c(=O)n3ccccc23)CC1
Serine/threonine-protein kinase 32B (STK32B, Homo sapiens, UniProt Q9NY57): 100%
MAP kinase-activated protein kinase 2 (MAPKAPK2, Homo sapiens, UniProt P49137): 75%
Serine/threonine-protein kinase mTOR (MTOR, Homo sapiens, UniProt P42345): 90%
Bone morphogenetic protein receptor type-1B (BMPR1B, Homo sapiens, UniProt O00238): 67%
Muscle, skeletal receptor tyrosine-protein kinase (MUSK, Homo sapiens, UniProt O15146): 96%
ALK tyrosine kinase receptor (ALK, Homo sapiens, UniProt Q9UM73, L1196M): 100%
Receptor-interacting serine/threonine-protein kinase 1 (RIPK1, Homo sapiens, UniProt Q13546): 100%
Proto-oncogene tyrosine-protein kinase receptor Ret (RET, Homo sapiens, UniProt P07949): 95%
Phosphatidylinositol 4,5-bisphosphate 3-kinase catalytic subunit alpha isoform (PIK3CA, Homo sapiens, UniProt P42336, E545K): 100%
Serine/threonine-protein kinase ULK2 (ULK2, Homo sapiens, UniProt Q8IYT8): 93%
Mast/stem cell growth factor receptor Kit (KIT, Homo sapiens, UniProt P10721, L576P): 100%
Serine/threonine-protein kinase 17A (STK17A, Homo sapiens, UniProt Q9UEE5): 100%

Series 2 — target: CCNF, cyclin fold, Cln2 fusion (human); method: yeast growth competition, sequencing; matrix: yeast; setting: strong parent motif; baseline: not given; reading: higher = stronger binding; measurement: normalised enrichment score; parent: viral docking peptide; PTARRRLLHDLDT
PTARRRLAHDLDT [L8A]: -0.0979
PTARRRLLFDLDT [H9F]: 8.84
PTARKRLFHDLDT [R5K L8F]: 6.01
PTARRRLLHDLAT [D12A]: 1.73
PTARARLLHDLDT [R5A]: 0.561
PTARKRLLFDLDT [R5K H9F]: 8.15
PTARRRALHDLDT [L7A]: 0.883
PTARRRLLADLDT [H9A]: 3.78
PTARRRLLHDADT [L11A]: 2.32

Other studies, line by line
PSMD12 (Homo sapiens, UniProt O00232)  interaction screen (PSMD13 (Homo sapiens, UniProt Q9UNM6); cross-linking MS; hits only): cross-linked
CC(C)(C)c1cc(C=C(C#N)C#N)cc(Br)c1O  remaining activity (G protein-coupled receptor kinase 5 (GRK5, Homo sapiens, UniProt P34947); enzyme activity, inhibitor; 0.5 µM): 108%
EIF2S2 (Homo sapiens, UniProt P20042)  cross-linked residues (ANO10 (Homo sapiens, UniProt Q9NW15); cross-linking MS; cell fractions; together with: DSSO): K99 to K636
PELP1 (Homo sapiens, UniProt Q8IZL8)  interaction screen (WDR18 (Homo sapiens, UniProt Q9BV38); cross-linking MS; hits only): cross-linked
PFN1 (Homo sapiens, UniProt P07737)  cross-linked residues (SEMA4C (Homo sapiens, UniProt Q9C0C4); cross-linking MS; cell fractions; together with: DSSO): T90 to S35

For quick reference, copied from above (series 2):
PTARKRLLFDLDT [R5K H9F]: 8.15
PTARRRLAHDLDT [L8A]: -0.0979
PTARRRLLFDLDT [H9F]: 8.84
